Measurements pooled from the literature.
Numbered parts are unrelated; each lists some results of a single study. Substitutions count along the parent as printed.

Set 1
Target: inorganic phosphate, free oxyanion
Method: microfluidic competitive inhibition
Medium: in vitro, cell-free expressed
Tested at: not given
Notes: derived from inhibition constants, unchanged parent 615000 nM
Reading: lower = stronger binding
Starting sequence: PafA, mature enzyme, eGFP fusion (Elizabethkingia meningoseptica, UniProt Q9KJX5); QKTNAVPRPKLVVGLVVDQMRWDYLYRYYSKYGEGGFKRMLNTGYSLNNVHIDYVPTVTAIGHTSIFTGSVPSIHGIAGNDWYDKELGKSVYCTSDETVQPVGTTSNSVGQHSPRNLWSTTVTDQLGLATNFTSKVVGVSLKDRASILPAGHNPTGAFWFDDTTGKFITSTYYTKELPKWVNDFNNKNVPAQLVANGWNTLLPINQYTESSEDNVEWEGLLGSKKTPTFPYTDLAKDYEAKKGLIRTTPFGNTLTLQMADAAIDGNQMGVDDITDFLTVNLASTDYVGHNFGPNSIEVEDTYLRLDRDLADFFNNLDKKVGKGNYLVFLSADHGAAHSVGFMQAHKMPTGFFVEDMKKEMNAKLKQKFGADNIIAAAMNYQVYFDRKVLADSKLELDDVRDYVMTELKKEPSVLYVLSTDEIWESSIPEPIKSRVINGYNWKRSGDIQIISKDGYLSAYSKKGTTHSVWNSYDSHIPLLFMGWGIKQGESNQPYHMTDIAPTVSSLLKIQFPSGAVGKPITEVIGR
For `G454A`, “phosphate dissociation constant” read 495 µM.
`G79A`: “phosphate dissociation constant” 865 µM.
`D264V` — result for “phosphate dissociation constant”: 655 µM.
`Y231G` — result for “phosphate dissociation constant”: 167 µM.
`D275G` — result for “phosphate dissociation constant”: 493 µM.

Set 2
Target: CCNB2, cyclin fold, Cln2 fusion (human)
Method: yeast growth competition, sequencing
Medium: yeast
Notes: weak parent motif
Reference: not given
Reading: higher = stronger binding
Starting sequence: viral docking peptide; KGVKRKLFAEDSS
For `KGVKRKLFAERSS [D11R]`, “normalised enrichment score” read 0.889.
Under “normalised enrichment score”, `KGVKRKLFAENSS [D11N]` is recorded as 0.695.
`KGVKRKLFAEDAS [S12A]`: “normalised enrichment score” 0.876.
Under “normalised enrichment score”, `KGVKRKLFAEDVS [S12V]` is recorded as 0.961.
For `KGVKRKLFAEHSS [D11H]`, “normalised enrichment score” read 0.897.
`KGVKRKLFAEDMS [S12M]` — result for “normalised enrichment score”: 0.59.
`KGVKRKLFAEDKS [S12K]` — result for “normalised enrichment score”: 0.824.
`KGVKMKLFAEDSS [R5M]` — result for “normalised enrichment score”: 0.127.
`KGVKRKLFAEDHS [S12H]` — result for “normalised enrichment score”: 0.561.
Under “normalised enrichment score”, `KGVKRNLFAEDSS [K6N]` is recorded as 0.182.
`KGVKRKLFYEDSS [A9Y]` — result for “normalised enrichment score”: 1.22.
For `KCVKRKLFAEDSS [G2C]`, “normalised enrichment score” read 1.12.
`KGVKRKLTAEDSS [F8T]` — result for “normalised enrichment score”: 0.414.
Under “normalised enrichment score”, `KGVKNKLFAEDSS [R5N]` is recorded as 0.347.
`KGVARKLFAEDSS [K4A]`: “normalised enrichment score” 0.886.
Under “normalised enrichment score”, `KGYKRKLFAEDSS [V3Y]` is recorded as 0.476.
For `KGVKRKLFFEDSS [A9F]`, “normalised enrichment score” read 2.
`KGVKRKLHAEDSS [F8H]`: “normalised enrichment score” 0.267.
`KTVKRKLFAEDSS [G2T]` — result for “normalised enrichment score”: 0.358.
For `KGVKRPLFAEDSS [K6P]`, “normalised enrichment score” read 0.575.
`KGVKRMLFAEDSS [K6M]`: “normalised enrichment score” 0.746.
`KGVKYKLFAEDSS [R5Y]` — result for “normalised enrichment score”: -0.276.
`KGVPRKLFAEDSS [K4P]` — result for “normalised enrichment score”: 0.0426.
For `KGVKRQLFAEDSS [K6Q]`, “normalised enrichment score” read 1.
`KGVKRKLQAEDSS [F8Q]` — result for “normalised enrichment score”: 0.543.

Set 3
Target: Ras GTPase-activating protein-binding protein 1, RRM domain (G3BP1, Homo sapiens, UniProt Q13283)
Chain of UniProt Q13283 (whole entry, looked up): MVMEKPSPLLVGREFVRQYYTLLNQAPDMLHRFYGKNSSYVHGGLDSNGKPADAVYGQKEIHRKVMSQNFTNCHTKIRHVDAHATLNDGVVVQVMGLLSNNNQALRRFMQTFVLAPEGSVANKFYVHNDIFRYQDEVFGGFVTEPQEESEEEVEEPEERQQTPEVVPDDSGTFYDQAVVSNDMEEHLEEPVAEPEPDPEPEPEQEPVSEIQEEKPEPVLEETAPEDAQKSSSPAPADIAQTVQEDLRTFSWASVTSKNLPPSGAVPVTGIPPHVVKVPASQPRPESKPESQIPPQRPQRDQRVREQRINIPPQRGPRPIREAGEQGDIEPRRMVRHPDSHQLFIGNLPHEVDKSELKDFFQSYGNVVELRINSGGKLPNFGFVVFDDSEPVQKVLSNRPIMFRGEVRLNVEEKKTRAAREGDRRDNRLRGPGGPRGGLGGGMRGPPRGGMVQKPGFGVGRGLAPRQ
Method: RNA Bind-n-Seq
Form: RNA
Medium: in vitro
Tested at: 1 µM
Notes: whole 134-nt RNA, ends assumed
With: 150 mM KCl
Reference: input library
Reading: higher = stronger binding
The log2 enrichment of `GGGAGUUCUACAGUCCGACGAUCCACAGACAACACGCACCCACACAGACACAGAGGGAAGGGGUUGGGAUGGGGACAGGGUGCACAGCAGGGCGGGGUAGGAUCCCAGCCCCUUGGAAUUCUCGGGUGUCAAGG` is reported as -0.244.
`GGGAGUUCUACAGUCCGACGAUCUGGCCCUGGUGGCAUGCGGGGAGGAAGAGAUGGCCUCAUGGAUCGUGGUGGUCCCGGUGGAAUGUUCAGAGGUGGCCGUGGUGGAGACAGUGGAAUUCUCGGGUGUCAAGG` gave a log2 enrichment of 0.686.
The log2 enrichment of `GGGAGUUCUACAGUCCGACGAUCCACAGACAACACGCACCCACACAGACACAGAGGGAAGGGGUGGGGAUGGGGACAGGGUGCACAGCAGGGCGGGGUAGGACCCCAGCCCCUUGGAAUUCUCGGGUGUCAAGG` is reported as 0.237.
`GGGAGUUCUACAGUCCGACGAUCCCUCAAGUCCUGUGCUACACAUCGUAUGUACCGAAUCGGAGGUUUUUGGUGGAAAGUAUUAUGUUACGCCGUUCGGAUCUGCACUUCCAGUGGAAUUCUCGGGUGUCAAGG` gave a log2 enrichment of -0.166.
`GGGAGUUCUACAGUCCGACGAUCUGGGAGGUGGAUUUUGUUUAUUUUUUUAGCUCAUUUCCAGGGGUGGGAAUUUUUUUUUAAUAUGUGUCAUGAAUAAAGUCGUUUUUGAAAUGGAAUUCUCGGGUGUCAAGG` has a log2 enrichment of 1.54.
With `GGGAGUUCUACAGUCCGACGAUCCCUGUGCUACACAUCGUAUGUACCGAAUCGGGGAAAAAAGGGAAAAAAGGGGAAAAAAGGGAAAGUAUUAUGUUACGCCGUUCGGAUCUGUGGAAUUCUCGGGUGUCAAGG` the log2 enrichment was -0.0184.
With `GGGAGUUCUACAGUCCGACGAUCACCAUGCAGGUGGGCAUCUUUGGGAAGUGGGGCAAGGGGGGGAUAGGGAGGGGGGUAACACUUUGGGGACAGGUGGUCCCAGGUCGUUUCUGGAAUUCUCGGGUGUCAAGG` the log2 enrichment was 0.853.
`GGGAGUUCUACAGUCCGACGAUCUCCUCAAGUCCUGUGCUACACAUCGUAUGUACCGAAUCGGUUUGGUGGUGGAAAGUAUUAUGUUACGCCGUUCGGAUCUGCACUUCCAGCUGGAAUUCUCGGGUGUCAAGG` has a log2 enrichment of -0.185.

Set 4
Target: UDP-N-acetylglucosamine--peptide N-acetylglucosaminyltransferase 110 kDa subunit (OGT, Homo sapiens, UniProt O15294)
Chain of UniProt O15294 (whole entry, looked up): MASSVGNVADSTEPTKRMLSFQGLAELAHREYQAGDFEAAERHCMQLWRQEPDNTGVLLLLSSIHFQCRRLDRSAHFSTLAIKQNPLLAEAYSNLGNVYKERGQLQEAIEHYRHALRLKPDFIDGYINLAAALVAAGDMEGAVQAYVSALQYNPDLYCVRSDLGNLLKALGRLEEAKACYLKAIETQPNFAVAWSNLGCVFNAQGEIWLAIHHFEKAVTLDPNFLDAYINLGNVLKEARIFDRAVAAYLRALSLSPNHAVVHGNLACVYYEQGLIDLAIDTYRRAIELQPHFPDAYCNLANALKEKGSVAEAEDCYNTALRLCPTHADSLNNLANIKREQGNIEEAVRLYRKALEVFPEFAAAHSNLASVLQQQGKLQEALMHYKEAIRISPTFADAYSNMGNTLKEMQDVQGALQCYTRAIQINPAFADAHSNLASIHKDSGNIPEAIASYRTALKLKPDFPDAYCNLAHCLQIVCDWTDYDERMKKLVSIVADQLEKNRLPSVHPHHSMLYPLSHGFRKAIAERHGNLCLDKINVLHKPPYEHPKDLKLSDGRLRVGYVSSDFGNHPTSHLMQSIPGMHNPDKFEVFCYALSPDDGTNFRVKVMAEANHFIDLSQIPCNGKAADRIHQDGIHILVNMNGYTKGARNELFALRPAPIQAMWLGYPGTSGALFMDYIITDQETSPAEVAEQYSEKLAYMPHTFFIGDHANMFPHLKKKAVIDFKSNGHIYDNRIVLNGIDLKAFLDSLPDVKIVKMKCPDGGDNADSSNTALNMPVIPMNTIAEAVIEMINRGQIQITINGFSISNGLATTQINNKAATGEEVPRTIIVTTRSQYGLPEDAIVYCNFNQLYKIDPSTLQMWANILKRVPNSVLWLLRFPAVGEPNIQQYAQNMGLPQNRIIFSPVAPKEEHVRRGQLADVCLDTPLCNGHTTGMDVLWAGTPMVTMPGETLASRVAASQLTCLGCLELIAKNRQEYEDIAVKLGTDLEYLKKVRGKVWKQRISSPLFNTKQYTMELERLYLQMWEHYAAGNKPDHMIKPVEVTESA
Effect on: binding
Method: phage display NGS
Form: peptide
Notes: panning round 2
Reference: input library
`DYAQFMPKYLIKQYE`: “minimum log2 enrichment ratio” 2.85.
`HNRHMHQHSHYMADT`: “minimum log2 enrichment ratio” 2.61.
`TYKNDRYLPFYPIII` — result for “minimum log2 enrichment ratio”: 3.75.
`DGQFKPVYMIDYGV`: “minimum log2 enrichment ratio” 2.97.
Under “minimum log2 enrichment ratio”, `ESHQYSFKPMYQIVI` is recorded as 4.53.
`GVQDYLPMYQISMSN` — result for “minimum log2 enrichment ratio”: 3.65.

Set 5
Target: Sal-like protein 4, full length isoform B (SALL4, Homo sapiens, UniProt Q9UJQ4-2, residues 1-616)
Method: universal PBM
Form: double-stranded DNA, one strand shown
Medium: in vitro
Tested at: not given
Notes: 8-mer, flanks averaged, mean of replicates
Reading: higher = stronger binding
Residues (chain): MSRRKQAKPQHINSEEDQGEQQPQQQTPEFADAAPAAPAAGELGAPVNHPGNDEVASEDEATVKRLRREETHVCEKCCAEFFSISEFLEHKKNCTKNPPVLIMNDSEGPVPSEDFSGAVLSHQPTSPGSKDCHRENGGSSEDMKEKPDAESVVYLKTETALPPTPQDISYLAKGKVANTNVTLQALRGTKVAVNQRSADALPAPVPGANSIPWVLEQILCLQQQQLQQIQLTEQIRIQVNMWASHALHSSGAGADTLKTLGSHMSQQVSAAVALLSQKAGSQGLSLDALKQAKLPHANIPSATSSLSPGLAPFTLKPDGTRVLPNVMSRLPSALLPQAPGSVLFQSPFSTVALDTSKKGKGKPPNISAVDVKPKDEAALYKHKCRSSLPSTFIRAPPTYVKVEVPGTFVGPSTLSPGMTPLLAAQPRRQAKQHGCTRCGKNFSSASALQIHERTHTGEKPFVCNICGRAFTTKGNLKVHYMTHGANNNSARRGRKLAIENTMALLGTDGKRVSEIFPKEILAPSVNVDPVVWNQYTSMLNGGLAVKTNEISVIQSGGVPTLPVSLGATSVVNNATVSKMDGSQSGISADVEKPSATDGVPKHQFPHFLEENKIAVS
`GTGCCCCA` has an E-score of -0.252.
`CTTCGATA` gave an E-score of 0.224.
`GATTCCTA` has an E-score of 0.0162.
The E-score of `CTACTGTA` is reported as 0.122.
With `AGTGGGAA` the E-score was -0.0329.
`AGATTGCG` has an E-score of -0.0035.
`AAAGTTAA` gave an E-score of 0.294.
`CGAGTACG` has an E-score of -0.151.
